Assay results pooled from the literature.
Each numbered part is a random draw from the data of one study; scales do not carry over between parts.

Sample 1
Target: Histone acetyltransferase KAT6A, winged helix 2, GST fusion (KAT6A, Homo sapiens, UniProt Q92794, residues 85-181)
Technique: protein binding microarray
Form: double-stranded DNA, one strand shown
Medium: in vitro
Concentration: not given
Setting: 8-mer, flanks averaged, mean of 2 arrays, mostly near background
Relative to: not given
Reading: higher = stronger binding
Target sequence (chain): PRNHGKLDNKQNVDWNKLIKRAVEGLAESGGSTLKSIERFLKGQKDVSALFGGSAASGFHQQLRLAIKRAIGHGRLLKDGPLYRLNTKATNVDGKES
`CATCTTGA` gave an E-score of -0.038.
For `ATCAAGGG`, the E-score was 0.0377.
The E-score of `GCACAAGA` is reported as 0.0722.
With `GCACGTGC` the E-score was 0.021.
The E-score of `GATTGCGA` is reported as 0.227.
The E-score of `ACAGATGA` is reported as -0.172.
With `AACCAGTG` the E-score was -0.205.
The E-score of `AGTTTACG` is reported as 0.0963.
For `ATTCTTGC`, the E-score was 0.134.
With `ACGTCCAT` the E-score was -0.165.
For `CAGAGGAA`, the E-score was 0.124.
With `CTGGGTAA` the E-score was 0.105.
The E-score of `CCTGAACC` is reported as -0.0128.
The E-score of `ATCCGCCA` is reported as 0.0701.
With `ATTCCCTC` the E-score was -0.0139.
With `AGTCTATG` the E-score was -0.217.
`GAACTAAC` has an E-score of 0.0459.
`TAAGGTCA` gave an E-score of -0.146.
For `TCAGAAGA`, the E-score was 0.0434.
The E-score of `CTCCCAGA` is reported as -0.0823.
`CCGACTGC` gave an E-score of -0.0322.
With `ACTAATCG` the E-score was 0.141.
`GTAAAACA` has an E-score of -0.126.
With `CTTTACTA` the E-score was 0.14.
The E-score of `ATCCAGCC` is reported as -0.00528.

Sample 2
Target: Interferon regulatory factor 7, full length, phosphomimetic (IRF7, Homo sapiens, UniProt Q92985, residues 1-503, S101K/S471D/S472D/S475D/S476D/S477D/S483D/S484D/S487D)
UniProt Q92985, sequence (whole entry, unmodified, looked up): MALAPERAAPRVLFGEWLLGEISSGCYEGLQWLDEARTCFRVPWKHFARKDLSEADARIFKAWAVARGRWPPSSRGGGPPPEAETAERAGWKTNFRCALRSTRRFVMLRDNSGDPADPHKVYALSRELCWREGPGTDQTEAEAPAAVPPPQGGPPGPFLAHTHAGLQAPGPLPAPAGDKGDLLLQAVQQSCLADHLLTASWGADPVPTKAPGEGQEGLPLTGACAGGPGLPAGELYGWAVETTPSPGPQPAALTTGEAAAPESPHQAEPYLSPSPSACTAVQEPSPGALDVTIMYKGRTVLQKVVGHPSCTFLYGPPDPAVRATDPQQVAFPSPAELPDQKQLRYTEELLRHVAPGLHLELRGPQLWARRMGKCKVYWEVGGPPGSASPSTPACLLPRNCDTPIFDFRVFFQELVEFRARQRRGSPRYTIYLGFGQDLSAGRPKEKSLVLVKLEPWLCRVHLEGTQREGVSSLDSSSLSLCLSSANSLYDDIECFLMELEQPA
Technique: protein-binding microarray
Form: double-stranded DNA, one strand shown
Medium: in vitro
Concentration: 250 nM
Setting: 60-bp whole probe
Together with: salmon DNA 0.4 mg/ml
Relative to: random background probes
Reading: higher = stronger binding
All sequences stand within: GCCTAGCAC … GTCTTGATTCGCTTGACGCTGCTG
For `TCATTTTCACTTTTCCTACTGTGCTAG`, the log fluorescence was 3.77 z-score.
With `GACGGTATCGGACTGCGGACGTGCTAG` the log fluorescence was -0.214 z-score.
With `GACGGACTGGGTATCAGGACGTGCTAG` the log fluorescence was -0.779 z-score.
The log fluorescence of `TTAGATATCAGTATCGATTAGTGCTAG` is reported as 0.764 z-score.
`CACGGACTGGACTTTCGGGACGTGCTA` has a log fluorescence of -0.398 z-score.
For `TTAGATTTCAGTTCCGAATAGTGCTAG`, the log fluorescence was 1.15 z-score.
The log fluorescence of `TTAGGTCTCGGTTTTGGTTAGTGCTAG` is reported as 5.8 z-score.
`CTAATATTCATTTTATTCAAGTGCTAG` has a log fluorescence of 2.03 z-score.
For `TTAGGCCTGGGTCTCGGTTAGTGCTAG`, the log fluorescence was 1.29 z-score.
For `GACAGACTGGGTCTCGGGACGTGCTAG`, the log fluorescence was -0.143 z-score.
For `TTAGGACTGGGTATCGCTTAGTGCTAG`, the log fluorescence was 0.252 z-score.
With `TTAGATTTCGGGTTCCGATTAGTGCTA` the log fluorescence was 3.12 z-score.
With `TTAGGTTTCGGTTATCGGTTAGTGCTA` the log fluorescence was 10.9 z-score.
`ACCACTCTTCCTTTACTTTCGTGCTAG` has a log fluorescence of 0.71 z-score.

Sample 3
Target: Fragile X messenger ribonucleoprotein 1, C-terminal low-complexity region (Fmr1, Mus musculus, UniProt P35922)
Technique: RNA Bind-n-Seq
Form: RNA
Medium: in vitro
Concentration: 200 nM
Setting: whole 134-nt RNA, ends assumed
Together with: 150 mM KCl
Relative to: input library
Reading: higher = stronger binding
`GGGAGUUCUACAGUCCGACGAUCCAAGUCCUGUGCUACACAUCGUAUGUACCGAAUCGGAGGAAAAAAAGGAAAAAGGAAAGUAUUAUGUUACGCCGUUCGGAUCUGCACUUCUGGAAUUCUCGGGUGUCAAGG` has a log2 enrichment of -0.52.
With `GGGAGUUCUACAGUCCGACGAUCGGGGGUGACCGCCGGAGCGCGGCGUGAGCCCUCCCCCUUGGGAUCCCGCAGCUGACCAGUCGCGCUGACGGACAGACAGACAGACACCGCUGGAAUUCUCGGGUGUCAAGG` the log2 enrichment was -0.695.
With `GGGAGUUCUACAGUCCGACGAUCGAGCUGGAAGCUAUCAAAGCUCGAGUCAGGGAGAUGGAGGAAGAAGCUGAGAAGCUAAAGGAGCUACAGAACGAGGUAGAGAAGCAGAUGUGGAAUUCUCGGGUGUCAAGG` the log2 enrichment was -0.314.
`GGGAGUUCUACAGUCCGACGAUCAAGUCCUGUGCUACACAUCGUAUGUACCGAAUCGGUUUUGGGGUUUUGGGGUUUUGGAAAGUAUUAUGUUACGCCGUUCGGAUCUGCACUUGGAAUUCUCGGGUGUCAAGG` gave a log2 enrichment of -0.171.
`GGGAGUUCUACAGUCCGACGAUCCACAGACAACACGCACCCACACAGACACAGAGGAAAGGGGUUGGGAUGGGGACAGGGUGCACAGCAGGGCGGGGUAGGACCCCAGCCCCUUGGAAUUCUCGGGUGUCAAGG` has a log2 enrichment of 1.17.
`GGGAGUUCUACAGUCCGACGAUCCCUGUGCUACACAUCGUAUGUACCGAAUCGGGGAAAAAGGGGAAAGGGGAAAAAAAGGGGAAAGUAUUAUGUUACGCCGUUCGGAUCUGCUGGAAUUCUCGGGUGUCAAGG` has a log2 enrichment of 0.0297.
The log2 enrichment of `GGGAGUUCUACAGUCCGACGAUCUACCUGAUCAAUGACAGAGCCUUCUGAGGACAUUCCAAGACAGUAUACAGUCCUGUGGUCUCCUUGGAAAUCCGUCUAGUUAACAUUUCAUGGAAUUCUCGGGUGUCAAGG` is reported as -1.68.
For `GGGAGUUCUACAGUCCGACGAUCGCAGGAAGUAAAAACAAAUGGAAAUGCUUCGGAUAGUGGCAGGGGUGGGGGUUGCUGAGGAAAGGGUGGGAUGGGAGUGGGUAAAGAGUUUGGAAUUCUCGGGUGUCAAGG`, the log2 enrichment was 0.345.
`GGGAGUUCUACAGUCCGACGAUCAGUCCUGUGCUACACAUCGUAUGUACCGAAUCGGAAAAAGGAAAAAAAGGAAAAAGGAAAGUAUUAUGUUACGCCGUUCGGAUCUGCACUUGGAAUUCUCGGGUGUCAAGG` gave a log2 enrichment of -0.796.

Sample 4
Target: RNA binding protein fox-1 homolog 2, RRM domain, GST-SBP tag (RBFOX2, Homo sapiens, UniProt O43251-10, residues 100-194)
Technique: RNA Bind-n-Seq
Form: RNA
Medium: in vitro
Concentration: 365 nM
Setting: natural RNA segment, single round, ends assumed
Relative to: no-protein control
Reading: higher = stronger binding
Construct (chain): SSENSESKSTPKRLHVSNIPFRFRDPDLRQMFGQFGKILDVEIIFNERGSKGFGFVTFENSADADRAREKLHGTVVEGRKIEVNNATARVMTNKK
`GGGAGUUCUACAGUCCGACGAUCAAGUCCCCAGAGGGCUGCCCACGAUAGAAGCUGCCAAGCAGGGAGAACCUGUGCCAACUGUGGAGUGGGGAGGUUGGGCCUGGACCCUCAACCCCUGCAACCUUCCCUAGUGGAAUUCUCGGGUGCCAA`: “RBNS enrichment (R)” 0.295.
Under “RBNS enrichment (R)”, `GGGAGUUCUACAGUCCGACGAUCAUAGGCUCUGUGGAGUUGGCUUGCAUUUGGAUUUCUCUCUUCUAAGGUACAUGUUAAACCUUCCUCUGCCUUCUCAGCCACAUGCUUUUGGCCAUAAAUACUCAAUCUACUGGAAUUCUCGGGUGCCAA` is recorded as 0.921.
Under “RBNS enrichment (R)”, `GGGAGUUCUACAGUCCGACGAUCGGUGUCACGGCACACAUUUACUCUGCAUUGUCCCCGUCUUUCCCAUCGCCUAGCGUUUGGGGAGGAACAGGGAGAGAGCUUCGGGGCGUCUGUCUCCGUGCUCUCCUGCCUGGAAUUCUCGGGUGCCAA` is recorded as 0.189.
Under “RBNS enrichment (R)”, `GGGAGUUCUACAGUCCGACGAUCGCUGCCCAUCCCUGUUGCCUUUGAGUUUCUUGGAAUUGUGGCUGUCCUCGGAAUCUCUUUUCUAUUCACAGCCCUUCUAUAGCCUUGCUCUGAUGGUUUUAGCACUUGAUUGGAAUUCUCGGGUGCCAA` is recorded as 0.559.
`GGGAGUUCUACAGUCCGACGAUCCUUUAAGACUUUAAAUACAGAUUUAGUUUUGAGUGUUUGAGAGACCACUACACUUGUAUGGUUGAGUGUUUAAAAUGUCUAUCACCCUCACUUCAGAGUGUGACUCUUUAUGGAAUUCUCGGGUGCCAA` — result for “RBNS enrichment (R)”: 0.431.
`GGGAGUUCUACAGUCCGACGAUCCAUCUUCUUGUACAGUUUUUGUUUGGGUAAUGAUCACAGCAAUCCUUACACAUUUUAUGUAAACUCUUUAAUGUCUUUAAUUUGGAUUUUUGUUUCUUAGAACUUUAACAUGGAAUUCUCGGGUGCCAA` — result for “RBNS enrichment (R)”: 0.552.
`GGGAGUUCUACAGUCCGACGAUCCCCGAGAACGAGGAAGAUGGAUGUCCCAGCUCCCAAAGGGAGGAUUCUCCCUUCCUCCUCCUUCUUUUCUAUUGGGGCCCUCAACAGAUUGGAUGGAGUGGAUGUCUUCAUGGAAUUCUCGGGUGCCAA`: “RBNS enrichment (R)” 0.355.
For `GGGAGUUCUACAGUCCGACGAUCUUACUCAGUCCCUUUACCUUAGGUGGAAUCUUCUUAAAUUGAAAUUUUUGGUAAGGAAUUCAUUUCACAGGUAGUGUUUCAGACUCUGAAAGCCCUGACUUGGUUCUUGGUGGAAUUCUCGGGUGCCAA`, “RBNS enrichment (R)” read 0.625.

A few entries again (sample 1):
`CATCTTGA` gave an E-score of -0.038.
`GAACTAAC` has an E-score of 0.0459.
With `ACTAATCG` the E-score was 0.141.
With `ATTCCCTC` the E-score was -0.0139.
The E-score of `ATCCGCCA` is reported as 0.0701.
With `AGTCTATG` the E-score was -0.217.
